Experimental data gathered from unrelated publications.
Parts stem from different laboratories: compare values within a part only. Substitutions count along the parent as printed.

Block 1
Target: ABI1, truncated, D143A, DHFR fusion (Arabidopsis thaliana)
Method: DHFR PCA, deep sequencing
Sample: yeast
Setting: methotrexate growth selection, single substitutions
With: (+)-ABA 0.11 µM
Relative to: wild-type fitted maximum
Reading: higher = stronger binding
Starting sequence: PYL1, truncated, DHFR fusion (Arabidopsis thaliana); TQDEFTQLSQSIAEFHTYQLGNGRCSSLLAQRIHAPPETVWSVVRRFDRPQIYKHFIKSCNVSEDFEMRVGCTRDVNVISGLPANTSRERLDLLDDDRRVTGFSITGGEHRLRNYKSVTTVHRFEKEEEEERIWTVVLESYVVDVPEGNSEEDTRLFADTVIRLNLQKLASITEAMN; partner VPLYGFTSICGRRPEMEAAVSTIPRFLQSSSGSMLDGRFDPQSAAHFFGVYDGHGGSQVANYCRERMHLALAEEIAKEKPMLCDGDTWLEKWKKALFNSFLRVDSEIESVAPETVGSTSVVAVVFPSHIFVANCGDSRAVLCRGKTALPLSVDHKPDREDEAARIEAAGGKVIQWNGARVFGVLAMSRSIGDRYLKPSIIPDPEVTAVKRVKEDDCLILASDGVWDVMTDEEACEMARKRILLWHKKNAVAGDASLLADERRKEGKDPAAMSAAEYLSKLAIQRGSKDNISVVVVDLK
`L156H`: “relative binding score” 4.25%.
For `V70D`, “relative binding score” read -2.68%.
Under “relative binding score”, `A84T` is recorded as 26.6%.
`F56Q`: “relative binding score” -6.51%.
`S117I`: “relative binding score” 7.1%.
For `K126Q`, “relative binding score” read 45.5%.
Under “relative binding score”, `S27K` is recorded as 0.765%.
Under “relative binding score”, `I162S` is recorded as 5.64%.
`V137I`: “relative binding score” 1.74%.
`D75R`: “relative binding score” 14.8%.
`L93I` — result for “relative binding score”: 74.7%.
For `S9Q`, “relative binding score” read 57.5%.
`P83Y`: “relative binding score” 4.59%.

Block 2
Target: Histone acetyltransferase KAT6A, winged helix 1, GST fusion (KAT6A, Homo sapiens, UniProt Q92794, residues 1-85)
Method: protein binding microarray
Molecule type: double-stranded DNA, one strand shown
Sample: in vitro
Concentration: not given
Setting: 8-mer, flanks averaged, mean of 2 arrays, mostly near background
Relative to: not given
Reading: higher = stronger binding
Target sequence (chain): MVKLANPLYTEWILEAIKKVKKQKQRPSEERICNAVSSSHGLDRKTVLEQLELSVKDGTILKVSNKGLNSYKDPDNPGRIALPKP
The E-score of `CATATCAG` is reported as 0.0805.
With `AGACCAGC` the E-score was -0.0772.
For `AACATATA`, the E-score was -0.209.
With `ACCTCGAG` the E-score was -0.112.
The E-score of `AATGCAAG` is reported as -0.147.
`AATCGTTG` has an E-score of -0.0762.
For `CGGCTGAA`, the E-score was 0.19.
With `GCACATAC` the E-score was 0.0635.
With `AATCCCCG` the E-score was 0.224.
`GTGACGCA` has an E-score of 0.0727.
For `CCGCAACG`, the E-score was 0.296.
With `CTGCGCCC` the E-score was 0.227.
`ATTTGGTC` gave an E-score of -0.265.
For `GAGAGCCC`, the E-score was -0.0584.
For `AATGTTAT`, the E-score was -0.234.
The E-score of `AGTAGTTC` is reported as -0.07.
With `AAGCCTAA` the E-score was -0.137.
`CCTCAGGA` has an E-score of -0.0513.

Block 3
Target: Prothrombin, mature alpha-thrombin (F2, Homo sapiens, UniProt P00734)
Method: aptamer microarray, sandwich
Molecule type: DNA with 2'F-ANA
Sample: in vitro
Concentration: 200 nM
Setting: whole 15-mer aptamer, many near background
With: Cy3 exosite-II aptamer, 400 nM
Reading: higher = stronger binding
Strand: GGTTGGTGTGGTTGG
For `2'F-ANA at 1 10 12 14 15`, “mean fluorescence intensity” read 58.9 a.u.
`2'F-ANA at 1 4 6 7 8 9 13 14`: “mean fluorescence intensity” 57.8 a.u.
Under “mean fluorescence intensity”, `2'F-ANA at 1 2 4 5 6 9 10 12 14 15` is recorded as 47.6 a.u.
`2'F-ANA at 1 2 7 8 10 13 14 15`: “mean fluorescence intensity” 46.5 a.u.
For `2'F-ANA at 1 3 5 8 10 12 13 14 15`, “mean fluorescence intensity” read 49.2 a.u.
`2'F-ANA at 1 5 6 7 9 10 12 13 15`: “mean fluorescence intensity” 52 a.u.
For `2'F-ANA at 1 2 4 5 9 10 12 13`, “mean fluorescence intensity” read 48.2 a.u.
`2'F-ANA at 2 3 4 5 7 8 10 12 13 14` — result for “mean fluorescence intensity”: 47.3 a.u.
`2'F-ANA at 2 10 12 13 14 15`: “mean fluorescence intensity” 124 a.u.
For `2'F-ANA at 1 2 3 4 7 10 11 12 14 15`, “mean fluorescence intensity” read 61.6 a.u.
For `2'F-ANA at 2 4 6 7 8 10 13 15`, “mean fluorescence intensity” read 69.9 a.u.
Under “mean fluorescence intensity”, `2'F-ANA at 4 6 9 12 13` is recorded as 292 a.u.
`2'F-ANA at 1 2 3 4 5 6 7 9 13 15` — result for “mean fluorescence intensity”: 50.7 a.u.
`2'F-ANA at 1 4 5 6 8 9 10 11 12` — result for “mean fluorescence intensity”: 52.7 a.u.
`2'F-ANA at 2 3 4 7 9 10 12 14 15` — result for “mean fluorescence intensity”: 305 a.u.
`2'F-ANA at 1 3 4 5 6 8 10 12 13 15` — result for “mean fluorescence intensity”: 48.8 a.u.
For `2'F-ANA at 9 10 11 12 13 14 15`, “mean fluorescence intensity” read 102 a.u.
Under “mean fluorescence intensity”, `2'F-ANA at 1 2 3 4 5 6 8 10 14` is recorded as 50.8 a.u.
Under “mean fluorescence intensity”, `2'F-ANA at 1 2 3 8 12 15` is recorded as 554 a.u.

Mixed results
`PhoQ, residues 284 288 289 292 302 303 TTCLQL` gave a fold induction of 2.36 (PhoP, residues 12 14 15 18 19 LHSVW (Escherichia coli, UniProt P23836); Sort-seq, measured: YFP reporter; E. coli; PhoQ-PhoP variant library, with: 10 µM Mg2+; relative to: high Mg2+ state, higher = stronger signaling).

A few entries again (block 2):
The E-score of `AATGCAAG` is reported as -0.147.
`AATCGTTG` has an E-score of -0.0762.
For `CGGCTGAA`, the E-score was 0.19.
